Assay results from different studies.
Protocols differ between the studies behind these lines. ± gives the spread as reported.

SMILES | target or system | test | system | conditions | scale | quantity | value
COc1ccc(C(=O)CCc2cc(C(CCc3ccc(O)cc3OC)c3ccc(O)cc3)c(O)cc2OC)cc1 (racemic) | – | – | human blood | 30 µM, together with: A23187 | – | LTB4 level | 2320 ± 987 pg/mL
CC(C)(C)c1cc(-c2ccc3cccnc3n2)nc(-c2ccc3cccnc3n2)c1.[Cl-].[Cl-].[Ru+2].c1cnc2c(c1)ccc1cccnc12 | B16-F10 | resazurin | – | together with: light 733 nm, 100 J/cm2 | baseline: dark EC50 over light EC50 | phototoxicity index | 1
CNS(=O)(=O)Nc1nccc(Cc2c(C)c3ccc(Oc4ncccc4F)cc3oc2=O)c1F | SW837 | cell viability | – | 7 days | – | IC50 | 5.87 nM
C=CC(=O)N1[C@@H](c2ccc3c(c2)OCO3)c2[nH]c3ccccc3c2C[C@H]1C(=O)N1CCN(C)CC1 | human cyclin E1 wild type-3xFLAG:CDK2 | co-IP with TMT proteomics, measured: BCLAF1 | – | concentration not given, Q9NYF8 | baseline: wild type DMSO | relative co-enrichment | 106%
C=C(NC(=O)c1csc(-c2nc3c(cc2O)-c2nc(cs2)C(=O)NC(C(C)O)C(=O)NC(=C(C)OC)c2nc(cs2)C(=O)NC2c4nc(cs4)C(=O)NC(COC(=O)c4c5c6c(cccc6n4O)COC(=O)C(OC4CC(C)(O)C(N(C)C)C(C)O4)C2OC5)c2nc-3cs2)n1)C(N)=O (stereo not drawn) | Streptococcus pneumoniae | – | -25, immunocompromised mice, lung infection, lung | 2 mg/kg/day once daily, 24 h post-dose | – | bacterial load | 4.4 log CFU/g
C=CC(=O)Nc1cccc(Cn2ncc3cnc(Nc4cnn(CCOC)c4)nc32)c1 | PIP5K2B human | binding, KINOMEscan | – | 100 nM | lower = stronger binding | percent of control | 8.2%
CC(C)c1ccc(N(C)c2ccc3c(c2)OCC[C@H]3CNc2cnccc2C(=O)O)cc1 | SW1271 | cell growth or viability, ATP luminescence | – | 7 days | – | IC50 | ≥ 10000 nM
N=C(N)NCCC[C@@H]1NC(=O)[C@H](CCCNC(=N)N)NC(=O)[C@@H](CCCNC(=N)N)NC(=O)[C@@H](CCCNC(=N)N)NC(=O)[C@@H](C(c2ccccc2)c2ccccc2)NC(=O)[C@@H](Cc2c[nH]c3ccccc23)NC(=O)[C@@H](C(c2ccccc2)c2ccccc2)NC1=O | Aspergillus fumigatus | fungal growth | – | – | – | MIC | > 64 µg/mL
C[n+]1cccc2cc(/C=N/NC(=O)c3cc(C(=O)N/N=C/c4ccc5c(ccc[n+]5C)c4)ncn3)ccc21 | telomeric G4 DNA hybrid-2 | FRET melting | – | 1 µM, DNA 0.2 µM, together with: duplex DNA competitor 10 µM | – | ΔTm | 2.5 ± 0.3 °C
COc1cc(O)ccc1CCC(c1ccc(O)cc1)c1cc2c(c(C)c1O)OC(c1ccc(O)cc1)CC2 (mixture of isomers) | – | measured: 5-HEPE | human whole blood | 30 µM, together with: Escherichia coli | – | amount | 40 ± 8 pg/mL blood
C[n+]1ccc(/C=N/NC(=O)N/N=C/c2cc[n+](C)c3ccccc23)c2ccccc21 | telomeric G4 DNA hybrid-2 | FRET melting | – | 1 µM, DNA 0.2 µM | – | ΔTm | 8.6 ± 0.5 °C
Nc1ncc(-c2cc(-c3cnn(CC(F)(F)F)c3)ncc2F)nc1C(=O)NC1CNCC(F)C1 (stereo not drawn) | p38-alpha | KINOMEscan competition binding | – | 1 µM | baseline: DMSO control | remaining binding | 96%
C[n+]1cc(/C=N/NC(=O)c2ccc3ccc4ccc(C(=O)N/N=C/c5cc6ccccc6[n+](C)c5)nc4c3n2)cc2ccccc21 | telomeric G4 DNA hybrid-2 | FRET melting | – | 1 µM, DNA 0.2 µM, together with: duplex DNA competitor 10 µM | – | ΔTm | 25.8 ± 1.7 °C
Cc1ncsc1-c1ccc(C(C)NC(=O)C2CC(O)CN2C(=O)C(NC(=O)CCCCCCCCCCN2CCCC(Nc3ncc(Cl)c(Nc4ccccc4S(=O)(=O)C(C)C)n3)C2)C(C)(C)C)cc1 (stereo not drawn) | 22Rv1 | RNA-seq, measured: TUT7 mRNA | – | concentration not given | baseline: DMSO | log2 fold change | -1.37
C[n+]1ccc(/C=N/NC(=O)C(=O)N/N=C/c2cc[n+](C)c3ccccc23)c2ccccc21 | telomeric G4 DNA hybrid-2 | FRET melting | – | 1 µM, DNA 0.2 µM | – | ΔTm | 2.2 ± 0.9 °C
COC1CN([C@H]2CC[C@H]([C@@]3(C)Oc4c(Cl)cc(C(=O)NCc5c(SC)cc(C)[nH]c5=O)c(C)c4O3)CC2)C1 | – | RNA-seq, measured: ATP7B | human, whole blood | dose not given, 24 h | baseline: pretreatment baseline | log2 fold change | 2.44
CC[n+]1cccc2cc(/C=N/NC(=O)c3cc(C(=O)N/N=C/c4ccc5c(ccc[n+]5CC)c4)ncn3)ccc21 | telomeric G4 DNA hybrid-2 | FRET melting | – | 1 µM, DNA 0.2 µM, together with: duplex DNA competitor 10 µM | – | ΔTm | 3.9 ± 0.4 °C
CC(=O)[O-].O.O.[O-]c1ccc(Br)cc1C=NCCN1CCOCC1.[Zn+2] | – | FRAP | – | 80 µM | – | ferric reducing power | 14.7%
O=C(N/N=C/c1cc[n+](CC2CC2)c2ccccc12)c1cncc(C(=O)N/N=C/c2cc[n+](CC3CC3)c3ccccc23)n1 | telomeric G4 DNA hybrid-2 | FRET melting | – | 1 µM, DNA 0.2 µM | – | ΔTm | 23.7 ± 0.2 °C
c1ccc(-c2n[nH]cc2-c2ccnc3ccccc23)nc1 | CTK1 (Candida albicans) | kinase binding, MIB/MS competition | Candida albicans lysate | 10 µM | baseline: DMSO | log2 fold change | -0.18
O=C(N/N=C/c1cc[n+](CC2CC2)c2ccccc12)c1cccc(C(=O)N/N=C/c2cc[n+](CC3CC3)c3ccccc23)n1 | telomeric G4 DNA hybrid-2 | FRET melting | – | 1 µM, DNA 0.2 µM, together with: duplex DNA competitor 10 µM | – | ΔTm | 28.2 ± 0.1 °C
Cn1ncc2cc(-c3cncc(Cl)c3N3CCC4(CCNC4=O)CC3)ccc21 | LS174T | gene expression, microarray, measured: ACTG2 mRNA | – | concentration not given, 24 h | baseline: untreated cells | log2 fold change | 1.15
O=C(N/N=C/c1ccc2c(ccc[n+]2Cc2ccccc2)c1)N/N=C/c1ccc2c(ccc[n+]2Cc2ccccc2)c1 | telomeric G4 DNA hybrid-2 | FRET melting | – | 1 µM, DNA 0.2 µM, together with: duplex DNA competitor 10 µM | – | ΔTm | 12 ± 1.3 °C
CN1CCCNC(=O)c2cccc(c2)C(=O)NCCCN(C)CCCNc2cccc3c2C(=O)c2cccc(c2C3=O)NCCC1 | SAS | RNA-Seq, measured: PIAS3 mRNA | – | 1 µM, 6 h | baseline: untreated cells | log2 fold change | -1.03
